{"data": "Measured values gathered from unrelated publications", "note": "Every numbered part comes from another study and shows a few of its results, in no order. Several values in a cell are separate wells, animals, samples, runs or records."}
{"data": "Study 1", "SMILES": "CC(C)(C)c1cnc(CSc2cnc(NC(=O)C3CCNCC3)s2)o1", "host": "nude mouse, HH xenograft", "dose": "dose not given"}
{"setting": "day 17", "tumour volume": "123 mm³ and 259 mm³ and 240 mm³ and 20.2 mm³ and 27.6 mm³ and 48.7 mm³ and 36 mm³ and 171 mm³"}
{"setting": "day 11", "tumour volume": "28.2 mm³ and 0 mm³ and 67.9 mm³ and 55.3 mm³ and 22.6 mm³ and 30.6 mm³ and 110 mm³ and 5.32 mm³"}
{"setting": "day 13", "tumour volume": "117 mm³ and 104 mm³ and 115 mm³ and 31.2 mm³ and 34.2 mm³ and 11 mm³ and 181 mm³ and 27.2 mm³"}
{"setting": "day 6", "tumour volume": "46.4 mm³ and 23.4 mm³ and 53.2 mm³ and 18 mm³ and 45.6 mm³ and 57.6 mm³ and 142 mm³ and 27.2 mm³"}
{"data": "Study 2", "SMILES": "O=C(NCc1ccccc1)c1ccc(S(=O)(=O)NCc2ccccc2)cc1", "concentration": "1 µM"}
{"cell line": "sample C colorectal tumour organoid", "setting": "replicate 1", "how to read": "relative to: DMSO", "viability": "89.5%"}
{"cell line": "sample D normal epithelium organoids", "system": "human patient-derived organoids", "how to read": "relative to: DMSO control", "viability": "83.1% and 105%"}
{"cell line": "sample B colorectal tumour organoid", "setting": "replicate 2", "how to read": "relative to: DMSO", "viability": "86%"}
{"cell line": "sample C colorectal tumour organoid", "setting": "replicate 2", "how to read": "relative to: DMSO", "viability": "101%"}
{"cell line": "colorectal tumour organoids", "how to read": "relative to: DMSO", "viability": "91.3%"}
{"cell line": "sample I colorectal tumour organoid", "setting": "replicate 2", "how to read": "relative to: DMSO", "viability": "102%"}
{"cell line": "sample B colorectal tumour organoid", "setting": "replicate 1", "how to read": "relative to: DMSO", "viability": "106%"}
{"cell line": "sample I colorectal tumour organoid", "setting": "replicate 1", "how to read": "relative to: DMSO", "viability": "82.8%"}
{"cell line": "sample BA colorectal tumour organoid", "how to read": "relative to: DMSO", "viability": "72.4%"}
{"data": "Study 3", "method": "logD(dd/w) and ALogP", "notes": "MRN method"}
{"SMILES": "CC[C@@H]1NC(=O)[C@@H](CC)NC(=O)[C@H](CC(C)C)NC(=O)[C@H](Cc2ccccc2)NC(=O)[C@H]2CCCN2C(=O)[C@H](CC(C)C)NC1=O", "lipophilic permeability efficiency": 1.7}
{"SMILES": "CC(C)C[C@@H]1NC(=O)[C@H](Cc2ccc(O)cc2)N(C)C(=O)[C@H]2CCCN2C(=O)[C@H](CC(C)C)NC(=O)[C@H](CC(C)C)N(C)C(=O)[C@@H](C)N(C)C1=O", "lipophilic permeability efficiency": 1.68}
{"SMILES": "CC(C)C[C@@H]1NC(=O)[C@H](C)N(C)C(=O)[C@H]2CCCN2C(=O)[C@H](CC(C)C)NC(=O)[C@H](CC(C)C)N(C)C(=O)[C@@H](CC(C)C)N(C)C1=O", "lipophilic permeability efficiency": 3.79}
{"SMILES": "CC[C@@H]1C(=O)N(C)[C@@H](CC(C)C)C(=O)N[C@@H](CC(C)C)C(=O)N2CCC[C@@H]2C(=O)N(C)[C@@H](Cc2ccc(O)cc2)C(=O)N[C@@H](CC(C)C)C(=O)N1C", "lipophilic permeability efficiency": 1.68}
{"SMILES": "CC(C)C[C@@H]1NC(=O)[C@H](C)N(C)C(=O)[C@H]2CCCN2C(=O)[C@H](CC(C)C)NC(=O)[C@H](C)N(C)C(=O)[C@@H](CC(C)C)N(C)C1=O", "lipophilic permeability efficiency": 3.88}
{"SMILES": "CC(C)C[C@@H]1NC(=O)[C@H](Cc2ccccc2)N(C)C(=O)[C@H]2CCCN2C(=O)[C@H](CC(C)C)NC(=O)[C@H](C)N(C)C(=O)[C@@H](C)N(C)C1=O", "lipophilic permeability efficiency": 3.68}
{"SMILES": "CC[C@@H]1C(=O)N(C)[C@@H](CC(C)C)C(=O)N[C@@H](CC(C)C)C(=O)N2CCC[C@@H]2C(=O)N(C)[C@@H](CC2CCCCC2)C(=O)N[C@@H](CC(C)C)C(=O)N1C", "lipophilic permeability efficiency": 3.52}
{"SMILES": "CC(C)C[C@@H]1NC(=O)[C@H](Cc2ccc(O)cc2)NC(=O)[C@H]2CCCN2C(=O)[C@H](CC2CCCCC2)NC(=O)[C@H](CC2CCCCC2)NC(=O)[C@@H](CC(C)C)NC1=O", "lipophilic permeability efficiency": 0.085}
{"SMILES": "CC[C@@H]1NC(=O)[C@@H](CC(C)C)NC(=O)[C@H](CC(C)C)NC(=O)[C@H](Cc2ccccc2)NC(=O)[C@H]2CCCN2C(=O)[C@H](CC(C)C)NC1=O", "lipophilic permeability efficiency": 1.91}
{"SMILES": "CCC[C@@H]1C(=O)N(C)[C@@H](CC2CCCCC2)C(=O)N[C@@H](CC2CCCCC2)C(=O)N2CCC[C@@H]2C(=O)N(C)[C@@H](Cc2ccc(O)cc2)C(=O)N[C@@H](CC(C)C)C(=O)N1C", "lipophilic permeability efficiency": 1.06}
{"SMILES": "CC(C)C[C@@H]1NC(=O)[C@H](Cc2ccccc2)NC(=O)[C@H]2CCCN2C(=O)[C@H](CC(C)C)NC(=O)[C@H](CC2CCCCC2)NC(=O)[C@@H](CC(C)C)NC1=O", "lipophilic permeability efficiency": 1.84}
{"SMILES": "CC[C@@H]1C(=O)N(C)[C@@H](CC2CCCCC2)C(=O)N[C@@H](CC2CCCCC2)C(=O)N2CCC[C@@H]2C(=O)N(C)[C@@H](Cc2ccc(O)cc2)C(=O)N[C@@H](CC(C)C)C(=O)N1C", "lipophilic permeability efficiency": 1.32}
{"data": "Study 4", "organism": "Sarcocystis neurona", "read-out": "parasite growth", "concentration": "10 µM", "time": "96 h", "notes": "second screen", "relative to": "untreated"}
{"SMILES": "Nc1nc(O)c2ncn(COC(CO)CO)c2n1", "log2 fold change": 0.27}
{"SMILES": "CS(=O)(=O)c1ccc(C2=C(c3ccccc3)C(=O)OC2)cc1", "log2 fold change": 0.06}
{"SMILES": "Clc1ccc(COC(Cn2ccnc2)c2ccc(Cl)cc2Cl)c(Cl)c1 (centres unmarked)", "log2 fold change": -1.15}
{"SMILES": "C[C@@H]1O[C@@H](OC[C@H]2O[C@@H](Oc3c(-c4ccc(O)c(O)c4)oc4cc(O)cc(O)c4c3=O)[C@H](O)[C@@H](O)[C@@H]2O)[C@H](O)[C@H](O)[C@H]1O", "log2 fold change": 0.24}
{"SMILES": "CCCC1O[C@@H]2C[C@H]3[C@@H]4CCC5=CC(=O)C=C[C@]5(C)[C@H]4[C@@H](O)C[C@]3(C)[C@]2(C(=O)CO)O1 (some centres unmarked)", "log2 fold change": 0.17}
{"SMILES": "CC(=O)Nc1nnc(S(N)(=O)=O)s1", "log2 fold change": 0.2}
{"SMILES": "CNC(=C[N+](=O)[O-])NCCSCc1ccc(CN(C)C)o1", "log2 fold change": 0.17}
{"SMILES": "COc1cc([C@@H]2c3cc4c(cc3[C@H](O)[C@H]3COC(=O)[C@H]23)OCO4)cc(OC)c1OC", "log2 fold change": -0.0165}
{"SMILES": "Nc1nc(Cl)nc2c1ncn2[C@H]1C[C@H](O)[C@@H](CO)O1", "log2 fold change": 0.27}
{"SMILES": "COc1ccc2c(c1)c(CC(=O)O)c(C)n2C(=O)c1ccc(Cl)cc1", "log2 fold change": -0.08}
{"SMILES": "O=C1CC2(CCCC2)CC(=O)N1CCCCN1CCN(c2ncccn2)CC1", "log2 fold change": 0.36}
{"SMILES": "Cc1c(O)cccc1C(=O)N[C@@H](CSc1ccccc1)[C@H](O)CN1C[C@H]2CCCC[C@H]2C[C@H]1C(=O)NC(C)(C)C", "log2 fold change": -1.09}
{"SMILES": "Nc1nc(F)nc2c1ncn2[C@@H]1O[C@H](CO)[C@@H](O)[C@@H]1O", "log2 fold change": 0.26}
{"note": "For quick reference, copied from above (study 4):"}
{"SMILES": "Nc1nc(Cl)nc2c1ncn2[C@H]1C[C@H](O)[C@@H](CO)O1", "log2 fold change": 0.27}
{"SMILES": "O=C1CC2(CCCC2)CC(=O)N1CCCCN1CCN(c2ncccn2)CC1", "log2 fold change": 0.36}
{"SMILES": "Clc1ccc(COC(Cn2ccnc2)c2ccc(Cl)cc2Cl)c(Cl)c1 (centres unmarked)", "log2 fold change": -1.15}
{"SMILES": "COc1ccc2c(c1)c(CC(=O)O)c(C)n2C(=O)c1ccc(Cl)cc1", "log2 fold change": -0.08}
{"SMILES": "Nc1nc(O)c2ncn(COC(CO)CO)c2n1", "log2 fold change": 0.27}
{"SMILES": "Cc1c(O)cccc1C(=O)N[C@@H](CSc1ccccc1)[C@H](O)CN1C[C@H]2CCCC[C@H]2C[C@H]1C(=O)NC(C)(C)C", "log2 fold change": -1.09}
